Measured values from different studies.
Compare with care: the assays were run in different laboratories. Numbers after ± are the reported error. ≈ marks a conversion by molar mass, not a printed value.
Organism: Staphylococcus aureus

`CC[C@H](C)[C@@H]1NC(=O)[C@H](CCC(N)=O)NC(=O)[C@H](CCCCN)NC(=O)[C@H](Cc2ccc(O)cc2)NC(=O)[C@H](CCCNC(=N)N)NC(=O)[C@H](CCCNC(=N)N)NC(=O)[C@@H]2CCCN2C(=O)[C@@H](NC(=O)[C@@H](N)Cc2ccccc2)CSSC[C@@H](C(=O)N[C@@H](CCCCN)C(=O)O)NC(=O)[C@H](CCCCN)NC(=O)[C@H]([C@@H](C)O)NC(=O)CNC(=O)[C@@H]2CCCN2C(=O)[C@H](CC(C)C)NC(=O)CNC(=O)[C@H]([C@@H](C)O)NC(=O)CNC1=O` — result for antibacterial activity: “inhibited” (ATCC 8530; MBC, 2 h, pH 7.4, 37 °C, together with: Escherichia coli K-235 LPS, peptide:LPS 1:5 w/w).
`CCCCc1ccc(-c2nc(C)c(C(C)=NNC(=N)N)s2)cc1` gave an MBC of 2.6 µg/mL (NRS119 MRSA).
`CC(C)C[C@H](NC(=O)[C@H](C)NC(=O)[C@@H](N)C(C)C)C(=O)N[C@@H](CC(=O)O)C(=O)N[C@@H](CC(C)C)C(=O)N[C@@H](CC(C)C)C(=O)N[C@@H](CCC(N)=O)C(=O)N[C@@H](Cc1ccc(O)cc1)C(=O)O` has a growth inhibition of 17.9% (OD600; methicillin-resistant DMST 20646; concentration not given, 18 to 22 h, 37 °C, unheated).
`CN[C@H](CC(C)C)C(=O)N[C@H]1C(=O)N[C@@H](CC(N)=O)C(=O)N[C@H]2C(=O)N[C@H]3C(=O)N[C@H](C(=O)N[C@H](C(=O)NCCCCCC(=O)N[C@H](CCCNC(=N)N)C(=O)N[C@H](CCCNC(=N)N)C(=O)N[C@H](CCCNC(=N)N)C(=O)N[C@H](CCCNC(=N)N)C(=O)N[C@H](CCCNC(=N)N)C(=O)N[C@H](CCCNC(=N)N)C(=O)N[C@H](CCCNC(=N)N)C(=O)N[C@H](CCCNC(=N)N)C(N)=O)c4cc(O)cc(O)c4-c4cc3ccc4O)[C@H](O)c3ccc(c(Cl)c3)Oc3cc2cc(c3O[C@@H]2O[C@H](CO)[C@@H](O)[C@H](O)[C@H]2O[C@H]2C[C@](C)(N)[C@H](O)[C@H](C)O2)Oc2ccc(cc2Cl)[C@H]1O` — result for “viable biofilm bacteria”: 8% (SYTO/PI live-dead staining; MRSA USA400 MW2; 80 µM, 5 h).
The survival of `CC(=O)N[C@@H](CCCNC(=N)N)C(=O)N[C@@H](Cc1c[nH]c2ccccc12)C(=O)N[C@@H](CCCNC(=N)N)C(=O)N[C@@H](Cc1c[nH]c2ccccc12)C(=O)N[C@@H](Cc1c[nH]c2ccccc12)C(=O)N[C@@H](CCCCN)C(=O)N[C@@H](Cc1ccccc1)C(=O)N[C@H](C(N)=O)C(C)C` is reported as 3 ± 1% (calcein leakage flow cytometry; ATCC 33591; 30 µM, 2 h, 37 °C).
With `CC[C@H](C)[C@H](NC(=O)[C@H](CCCCN)NC(=O)[C@H](CCCCN)NC(=O)[C@H](CC(C)C)NC(=O)[C@H](CCCCN)NC(=O)[C@H](CCC(=O)O)NC(=O)[C@H](CCCCN)NC(=O)[C@@H](NC(=O)[C@H](CCCCN)NC(=O)[C@H](CC(N)=O)NC(=O)[C@H](CCCNC(=N)N)NC(=O)[C@H](Cc1ccccc1)NC(=O)[C@H](CCCCN)NC(=O)[C@H](CCCNC(=N)N)NC(=O)[C@H](CC(C)C)NC(=O)[C@H](CCCNC(=N)N)NC(=O)[C@H](CCCCN)NC(=O)[C@H](CCCNC(=N)N)NC(=O)[C@H](CC(C)C)NC(=O)CN)[C@@H](C)CC)C(=O)NCC(=O)N[C@@H](CCC(N)=O)C(=O)N[C@@H](CCCCN)C(=O)N[C@H](C(=O)N[C@@H](CCC(N)=O)C(=O)NCC(=O)N[C@@H](Cc1ccccc1)C(=O)N[C@H](C(=O)N1CCC[C@H]1C(=O)N[C@@H](CCCCN)C(=O)N[C@@H](CC(C)C)C(=O)N[C@@H](C)C(=O)N1CCC[C@H]1C(=O)N[C@@H](CCCNC(=N)N)C(=O)N[C@H](C(=O)N[C@@H](CC(=O)O)C(=O)N[C@@H](Cc1ccc(O)cc1)C(=O)O)[C@@H](C)O)C(C)C)[C@@H](C)CC` the lethal concentration was 1.2 µM (inhibition zone; MRSA P1374).
For `CC[C@H](C)[C@@H]1NC(=O)[C@@H]2CSSC[C@@H]3NC(=O)[C@H](C(C)C)NC(=O)CNC(=O)CNC(=O)[C@H](CCCNC(=N)N)NC(=O)[C@H](CCCNC(=N)N)NC(=O)CNC(=O)[C@H](C(C)C)NC(=O)[C@@H]4CSSC[C@H](NC(=O)[C@H](CC(C)C)NC(=O)[C@H](CCCNC(=N)N)NC(=O)CNC(=O)CNC(=O)[C@H](CO)NC(=O)CNC(=O)[C@H](CO)NC(=O)CNC(=O)[C@@H]5CSSC[C@H](NC(=O)[C@H](CC(=O)O)NC(=O)[C@H](CO)NC(=O)[C@H](CC(=O)O)NC(=O)[C@H](CCCNC(=N)N)NC(=O)[C@H](CCCNC(=N)N)NC(=O)[C@H](CSSC[C@H](NC1=O)C(=O)N[C@@H](CCCNC(=N)N)C(=O)NCC(=O)N[C@@H](CC(N)=O)C(=O)NCC(=O)N[C@@H](Cc1ccc(O)cc1)C(=O)N5)NC(=O)[C@H](CCCNC(=N)N)NC(=O)[C@H](CCC(N)=O)NC(=O)[C@H](CC(C)C)NC(=O)[C@H]([C@@H](C)CC)NC(=O)[C@H](CCCCN)NC(=O)[C@@H]1CCCN1C3=O)C(=O)N1CCC[C@H]1C(=O)NCC(=O)N[C@@H](C)C(=O)N2)C(=O)N[C@@H](Cc1ccc(O)cc1)C(=O)N[C@H]1CSSC[C@H](NC(=O)[C@H](Cc2ccccc2)NC(=O)[C@H](CCCNC(=N)N)NC(=O)[C@H](CCCNC(=N)N)NC(=O)[C@H](CCCNC(=N)N)NC1=O)C(=O)N[C@@H](C(C)C)C(=O)N4`, the MIC90 was 12.5 µM (≈ 68.8 µg/mL) (CAMHB).
`C=Cc1cc(OC)c2c(c1)c(=O)oc1c2cc(OC)c2c(O)ccc([C@@H]3O[C@H](C)[C@H](O)[C@@](C)(O)[C@H]3O)c21`: “bacterial burden decrease” roughly 4.8 log10 per wound (MRSA USA300, mouse epicutaneous infection; 3 mg/kg, day 6).
`CO.[Ag+].[S-]c1ncccn1.c1ccc(P(c2ccccc2)c2ccccc2)cc1.c1ccc(P(c2ccccc2)c2ccccc2)cc1`: “inhibition zone diameter” “inactive” (MTCC 740; 50 mg/mL, 18 to 24 h).
`CC[C@H](C)[C@H](NC(=O)[C@H](CCCCN)NC(=O)[C@H](CCCCN)NC(=O)[C@H](CC(C)C)NC(=O)[C@H](CCCCN)NC(=O)[C@H](CCC(=O)O)NC(=O)[C@H](CCCCN)NC(=O)[C@@H](NC(=O)[C@H](CCCCN)NC(=O)[C@H](CC(N)=O)NC(=O)[C@H](CCCNC(=N)N)NC(=O)[C@H](Cc1ccccc1)NC(=O)[C@H](CCCCN)NC(=O)[C@H](CCCNC(=N)N)NC(=O)[C@H](CC(C)C)NC(=O)[C@H](CCCNC(=N)N)NC(=O)[C@H](CCCCN)NC(=O)[C@H](CCCNC(=N)N)NC(=O)[C@@H](N)CC(C)C)[C@@H](C)CC)C(=O)NCC(=O)N[C@@H](CCC(N)=O)C(=O)N[C@@H](CCCCN)C(=O)N[C@H](C(=O)N[C@@H](CCC(N)=O)C(=O)NCC(=O)N[C@@H](Cc1ccccc1)C(=O)N[C@H](C(=O)N1CCC[C@H]1C(=O)N[C@@H](CCCCN)C(=O)N[C@@H](CC(C)C)C(=O)O)C(C)C)[C@@H](C)CC` has a lethal concentration of 1.35 µM (inhibition zone; penicillin-resistant P1383).
`N#Cc1ccccc1Oc1ccc(Cl)cc1O` gave a post-antibiotic effect of 0.91 ± 0.11 h (RN4220; 4 x MIC, 1 h exposure, 37 °C).
`CC(C)C1=C(OC(=O)CCc2ccccc2)C(=O)C2=C(C=C[C@H]3C(C)(C)CCC[C@]23C)C1=O` gave an MBC of less than 70 µM (ATCC 25923, MSSA).
The CFU reduction of `FC(F)(F)c1ccc2nc3c4cccnc4c4ncccc4c3nc2c1.[Cl-].[Cl-].[Ru+2].c1ccncc1.c1ccncc1.c1ccncc1.c1ccncc1` is reported as greater than 4 log CFU (MRSA ATCC 43300; 10 µM, 20 min, together with: light 470 nm).
`CCOC(=O)c1cnc(N/N=C/c2c(-c3ccc(C#N)cc3)nc3ncccn23)s1` gave an inhibition zone of 16 mm (microbial growth, well diffusion; ATCC23235; 100 µg/mL).
With `Cc1cc(=O)nc(NC(=O)NCCCCCCNC(=O)NCCCCCCNC(=O)OCCOCCOCCOCCOCCOCCOCC(=O)N[C@@H](CC(C)C)C(=O)N[C@@H](CCCCN)C(=O)N[C@@H](CC(C)C)C(=O)N[C@@H](CC(C)C)C(=O)N[C@@H](CCCCN)C(=O)N[C@@H](CCCCN)C(=O)N[C@@H](CC(C)C)C(=O)N[C@@H](CC(C)C)C(=O)N[C@@H](CCCCN)C(=O)N[C@@H](CCCCN)C(=O)N[C@@H](CC(C)C)C(=O)N[C@@H](CC(C)C)C(=O)N[C@@H](CCCCN)C(=O)N[C@@H](CC(C)C)C(=O)N[C@@H](CC(C)C)C(N)=O)[nH]1` the LC99.9 was 7.5 µM (MRSA AMC 201, RPMI medium; 24 h, 37 °C).

Repeated from above:
`CC(C)C1=C(OC(=O)CCc2ccccc2)C(=O)C2=C(C=C[C@H]3C(C)(C)CCC[C@]23C)C1=O` gave an MBC of less than 70 µM (ATCC 25923, MSSA).
The CFU reduction of `FC(F)(F)c1ccc2nc3c4cccnc4c4ncccc4c3nc2c1.[Cl-].[Cl-].[Ru+2].c1ccncc1.c1ccncc1.c1ccncc1.c1ccncc1` is reported as greater than 4 log CFU (MRSA ATCC 43300; 10 µM, 20 min, together with: light 470 nm).
